Measured values of several laboratories.
Compare with care: the assays were run in different laboratories.
Cell line: HEK293
Read-out: cell growth or viability

CC[C@H]1OC(=O)[C@H](C)C(=O)[C@H](C)[C@@H](O[C@@H]2O[C@H](C)C[C@H](N(C)C)[C@H]2O)[C@](C)(OC)C[C@@H](C)C(=O)[C@H](C)[C@H]2N(CCCCn3cnc(-c4cccnc4)c3)C(=O)O[C@]12C  CC50: > 32 µg/mL
O=C1C(NCCc2cc(Br)c(O)c(Br)c2)=CC2=NCCc3c[nH]c1c32  CC50 (MTT; 72 h): 10 µM
CC[C@H]1OC(=O)[C@H](C)[C@@H](OC(=O)Cc2ccc(Cl)cc2)[C@H](C)[C@@H](O[C@@H]2O[C@H](C)C[C@H](N(C)C)[C@H]2O)[C@](C)(OC)C[C@@H](C)C(=O)[C@H](C)[C@@H](O)[C@]1(C)O  CC50: > 32 µg/mL
CC1(C)C(NC(=O)C(=NOC2(C(=O)O)CC2)c2csc(N)n2)C(=O)N1OS(=O)(=O)O (centres unmarked)  CC50: > 100 µM
COC(=O)c1cc(O)c(=O)c(O)cc1C  CC50 (MTS): > 90 µM
O=C(N/N=C/c1ccc([N+](=O)[O-])s1)c1ccccc1I  CC50 (resazurin; 48 h): > 20 µM
CC[C@H]1OC(=O)[C@H](C)[C@@H](OC(=O)Cc2ccc3c(c2)OCO3)[C@H](C)[C@@H](O[C@@H]2O[C@H](C)C[C@H](N(C)C)[C@H]2O)[C@](C)(OC)C[C@@H](C)C(=O)[C@H](C)[C@@H](O)[C@]1(C)O  CC50: > 32 µg/mL
Cc1ccc(S(=O)(=O)n2cc3c4c2C(=O)C(NCCc2ccc(O)cc2)=CC4=NCC3)cc1  CC50 (MTT; 72 h): 1 µM
CCOC(=O)c1ccc2c(c1)C1CC(C)(N2)c2c(C)nc3ccc(C(=O)OCC)cc3c21 (single isomer, unassigned)  CC50 (MTT): > 400 µM
CC[C@H]1OC(=O)[C@H](C)[C@@H](OC(=O)Cc2cccc(Cl)c2)[C@H](C)[C@@H](O[C@@H]2O[C@H](C)C[C@H](N(C)C)[C@H]2O)[C@](C)(OC)C[C@@H](C)C(=O)[C@H](C)[C@@H](O)[C@]1(C)O  CC50: > 32 µg/mL
COC(=O)c1c2c(cc(O)c(=O)c1O)COC2=O  CC50 (MTS): > 100 µM
O=C1C(NCCc2ccc(O)cc2)=CC2=NCCc3c(Br)[nH]c1c32  CC50 (MTT; 72 h): 5 µM
CCOC(=O)CCCc1cccc2c(-c3ccc(Oc4ccccc4)cc3)ccnc12  CC50 (MTT): > 400 µM
Cc1ccc(S(=O)(=O)n2cc3c4c2C(=O)C(N)=CC4=NCC3)cc1  CC50 (MTT; 72 h): 0.4 µM
CC[C@H]1OC(=O)[C@H](C)[C@@H](OC(=O)Cc2ccc([N+](=O)[O-])cc2)[C@H](C)[C@@H](O[C@@H]2O[C@H](C)C[C@H](N(C)C)[C@H]2O)[C@](C)(OC)C[C@@H](C)C(=O)[C@H](C)[C@@H](O)[C@]1(C)O  CC50: > 32 µg/mL
O=C1C(=O)c2[nH]cc3c2C(=C1Cl)NCC3  CC50 (MTT; 72 h): 20 µM
COC(=O)c1c(CCl)cc(O)c(=O)c(O)c1C(=O)OC  CC50 (MTS): > 100 µM

Some of these lines once more:
COC(=O)c1c(CCl)cc(O)c(=O)c(O)c1C(=O)OC  CC50 (MTS): > 100 µM
O=C(N/N=C/c1ccc([N+](=O)[O-])s1)c1ccccc1I  CC50 (resazurin; 48 h): > 20 µM
